Measurements gathered from unrelated publications.
Lines come from different studies, so protocols differ. ± marks the error that the study gave.

Compound = COc1ccc(C)cc1NC(=O)OC1CC2CCCC(C1)N2Cc1ccc(CC[18F])cc1 (stereo not shown); system = BALB/c mice, EMT6 tumour, lung; conditions = 2 h; quantity = tissue uptake; result = 4.98 ± 0.27 %ID/g
Compound = CCCC[C@H](NC(=O)CN1CCC(NC(=O)CN2CCC(NC(=O)CN3CCN(CC(=O)O)CCN(CC(=O)O)CCN(CC(=O)O)CC3)CC2)CC1)C(=O)N[C@H]1CC(=O)NCCCC[C@@H](C(N)=O)NC(=O)[C@H](Cc2c[nH]c3ccccc23)NC(=O)[C@H](CCCNC(=N)N)NC(=O)[C@@H](Cc2ccccc2)NC(=O)[C@H](Cc2c[nH]cn2)NC1=O [gallium-68 labelled]; system = C57BL/6J mice male B16-F10 tumour, lungs; conditions = 1 h post injection, unblocked; quantity = tissue uptake; result = 0.5 ± 0.1 %ID/g
Compound = COc1cc(C(=O)NCCOCCOCCOCCNC(=O)c2ccc([18F])nc2)ccc1NC(=O)C1NC(CC(C)(C)C)C(C#N)(c2ccc(Cl)cc2F)C1c1cccc(Cl)c1F (stereo not shown); system = athymic male mice, HepG2 xenograft, large intestine; conditions = 2 h; quantity = tissue uptake; result = 16.3 ± 2.63 %ID/g
Compound = C/C=C/C=C/C/C=C/CCCCCCCc1cccc(O)c1O; system = female Kunming mice, tumour-bearing, spleen; conditions = intravenous, 10 mg/kg, 8 h; quantity = tissue concentration; result = 5850 ± 740 ng/g
Compound = NC(=O)[C@@H](CCCCNC(=O)CNC(=O)CCC(=O)NCCc1c[nH]cn1)NC(=O)[C@@H](Cc1ccc(O)cc1)NC(=O)[C@@H](CCCCNC(=O)CNC(=O)CCC(=O)NCCc1c[nH]cn1)NC(=O)Cc1ccc(CN2CCN(CC(=O)O)CCN(CC(=O)O)CC2)cc1 [fluorine-18 labelled]; system = tumour-bearing nude mice, bone; conditions = intravenous, 1.04 MBq, 3 h, no pretargeting; quantity = tissue uptake; result = 0.08 ± 0.03 %ID/g
Compound = CCCC[C@H](NC(=O)CCOCCOCCNC(=O)CN1CCN(CC(=O)O)CCN(CC(=O)O)CCN(CC(=O)O)CC1)C(=O)N[C@H]1CC(=O)NCCCC[C@@H](C(N)=O)NC(=O)[C@H](Cc2c[nH]c3ccccc23)NC(=O)[C@H](CCCNC(=N)N)NC(=O)[C@@H](Cc2ccccc2)NC(=O)[C@H](Cc2c[nH]cn2)NC1=O [gallium-68 labelled]; system = C57BL/6J mice male B16-F10 tumour, testes; conditions = 1 h post injection, unblocked; quantity = tissue uptake; result = 0.2 ± 0.1 %ID/g
Compound = C[C@]12CC[C@H](OCC[18F])C[C@H]1CC[C@@H]1[C@@H]2CC[C@]2(C)[C@@H](c3ccc(=O)oc3)CC[C@]12O; system = male BALB/c nude mice, SMMC-7721 xenograft, kidney; conditions = intravenous, 7.4 MBq, 120 min; quantity = tissue uptake; result = 3.21 ± 0.57 %ID/g
Compound = [3H]c1sc(C)nc1C=C(C)C1CC2C(CCCC(C)C(O)C(C)C(=O)C(C)(C)C(O)CC(=O)O1)N2CCO (stereo not shown); assay = LC-MS/MS; system = CD2F1 mice tumour-bearing, kidney; conditions = intravenous, 2.2 nmol/kg, 24 h; quantity = tissue concentration; result = 1380 ± 40 ng/g
Compound = C[S]1CC[S]2CC[P](CO)(CO)[99Tc+]12.[C-]#[O+].[C-]#[O+].[C-]#[O+]; system = CF-1 mice, female, urine; conditions = intravenous, 1 h; quantity = tissue uptake; result = 46.3 %ID
Compound = COC(=O)C[C@](O)(CCCC(C)(C)OC(C)=O)C(=O)O[C@@H]1C(OC)=C[C@]23CCCN2CCc2cc4c(cc2[C@H]13)OCO4; system = CD1 mice, esophagus; conditions = oral, 1 mg/kg, 8 h; quantity = tissue concentration; result = not detected

Some of these lines once more:
Compound = [3H]c1sc(C)nc1C=C(C)C1CC2C(CCCC(C)C(O)C(C)C(=O)C(C)(C)C(O)CC(=O)O1)N2CCO (stereo not shown); assay = LC-MS/MS; system = CD2F1 mice tumour-bearing, kidney; conditions = intravenous, 2.2 nmol/kg, 24 h; quantity = tissue concentration; result = 1380 ± 40 ng/g
